Measurements pooled from the literature.
Protocols differ between the studies behind these lines.
Cell line: TK-10

SMILES	test	conditions	how to read	endpoint	value
Cn1cncc1C1=CN(c2ncnc3[nH]cnc23)CCS1		renal cancer		GI50	6.8 µM
O=C(Nc1nnc2n3c(=S)[nH][nH]c3nc(-c3ccc(Cl)cc3)c1-2)c1ccccc1	SRB	10 µM, NCI60 single-dose screen	relative to: untreated	cell growth	119%
CCCCN1CCN(c2ccc3[nH]c(-c4ccc5[nH]c(-c6ccc(C(F)(F)F)cc6)nc5c4)nc3c2)CC1	SRB	10 µM, 48 h		growth percent	-71.3%
O=C(Nc1nnc2n3c(Cc4ccccc4)n[nH]c3nc(-c3ccc(Cl)cc3)c1-2)c1ccccc1	SRB	10 µM, NCI60 single-dose screen	relative to: untreated	cell growth	120%
S=C([S][Au-][P+](CCCCCC[P+]([Au-][S]C(=S)n1cccn1)(c1ccccc1)c1ccccc1)(c1ccccc1)c1ccccc1)n1cccn1	cell growth, NCI-60 screen	renal cancer		log10 TGI	> -4
Cc1n[nH]c2nc(-c3ccc(Cl)cc3)c3c(NC(=O)c4ccccc4)nnc-3n12	SRB	10 µM, NCI60 single-dose screen	relative to: untreated	cell growth	112%
C#C[C@@]1(O)[C@@H](CO)O[C@@H](n2cc(I)c3c(N)ncnc32)[C@@H]1O	SRB	NCI-60 screen		TGI	5.51 µM
CCN(CC)c1ccc(C=NNC(=O)CSc2nc3ccccc3c(=O)n2Cc2ccc(S(N)(=O)=O)cc2)c(O)c1	NCI five-dose screen			TGI	> 100 µM
O=C1NCCc2[nH]c(-c3ccncc3)cc21	MTS	NCI60 panel		IC50	> 10 µM
CCCN1CCN(c2ccc3nc(-c4ccc5nc(-c6cc(OC)ccc6OC)[nH]c5c4)[nH]c3c2)CC1	SRB	10 µM, 48 h		growth percent	118%
O=C(Nc1nnc2n3c(nc(-c4ccc(Cl)cc4)c1-2)SCC3=O)c1ccccc1	SRB	10 µM, NCI60 single-dose screen	relative to: untreated	cell growth	153%
CCCCN1CCN(c2ccc3nc(-c4ccc5nc(-c6cc(OC)ccc6OC)[nH]c5c4)[nH]c3c2)CC1	SRB	10 µM, 48 h		growth percent	118%
C#C[C@@]1(O)[C@@H](CO)O[C@@H](n2ccc3c(N)ncnc32)[C@@H]1O	SRB	NCI-60 screen		TGI	9.48 µM
CSc1nc(-c2ccc(Cl)cc2)c2c(NC(=O)c3ccccc3)nnc-2[nH]1	SRB	10 µM, NCI60 single-dose screen	relative to: untreated	cell growth	117%
CCCCN1CCN(c2ccc3[nH]c(-c4ccc5[nH]c(-c6ccc(OCC)cc6)nc5c4)nc3c2)CC1	SRB	10 µM, 48 h		growth percent	86.8%

For quick reference, copied from above:
SMILES	test	conditions	how to read	endpoint	value
CCCCN1CCN(c2ccc3[nH]c(-c4ccc5[nH]c(-c6ccc(C(F)(F)F)cc6)nc5c4)nc3c2)CC1	SRB	10 µM, 48 h		growth percent	-71.3%
